{"data": "Published values pooled from the literature", "note": "Each numbered part is a random draw from the data of one study; scales do not carry over between parts.", "UniProt P10721, sequence (whole entry, unmodified, looked up)": "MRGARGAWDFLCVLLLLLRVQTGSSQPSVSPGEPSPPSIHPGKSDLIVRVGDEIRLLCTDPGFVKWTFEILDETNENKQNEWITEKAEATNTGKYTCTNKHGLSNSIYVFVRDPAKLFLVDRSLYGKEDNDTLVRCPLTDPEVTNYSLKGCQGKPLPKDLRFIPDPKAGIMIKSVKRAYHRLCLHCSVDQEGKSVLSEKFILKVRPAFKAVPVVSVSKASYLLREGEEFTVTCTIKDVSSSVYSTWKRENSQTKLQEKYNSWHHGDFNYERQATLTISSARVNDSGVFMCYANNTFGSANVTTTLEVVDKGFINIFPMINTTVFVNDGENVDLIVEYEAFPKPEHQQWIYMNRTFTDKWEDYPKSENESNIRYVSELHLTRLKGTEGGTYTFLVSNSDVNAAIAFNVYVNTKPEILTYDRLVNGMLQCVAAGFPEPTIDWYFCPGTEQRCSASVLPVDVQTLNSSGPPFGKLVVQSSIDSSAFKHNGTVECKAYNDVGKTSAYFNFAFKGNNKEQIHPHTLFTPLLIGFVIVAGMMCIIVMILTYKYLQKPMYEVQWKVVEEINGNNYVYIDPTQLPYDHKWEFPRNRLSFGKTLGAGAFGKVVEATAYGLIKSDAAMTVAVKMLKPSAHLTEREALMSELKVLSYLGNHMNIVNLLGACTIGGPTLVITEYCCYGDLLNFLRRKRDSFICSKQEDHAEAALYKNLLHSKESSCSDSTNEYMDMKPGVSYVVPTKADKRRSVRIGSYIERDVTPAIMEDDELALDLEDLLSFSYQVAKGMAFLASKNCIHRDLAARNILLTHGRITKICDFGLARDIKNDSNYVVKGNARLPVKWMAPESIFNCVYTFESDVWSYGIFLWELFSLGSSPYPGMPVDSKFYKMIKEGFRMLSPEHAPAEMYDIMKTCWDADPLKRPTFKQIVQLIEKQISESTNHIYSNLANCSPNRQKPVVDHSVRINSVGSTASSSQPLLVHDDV", "UniProt Q8N568, sequence (whole entry, looked up)": "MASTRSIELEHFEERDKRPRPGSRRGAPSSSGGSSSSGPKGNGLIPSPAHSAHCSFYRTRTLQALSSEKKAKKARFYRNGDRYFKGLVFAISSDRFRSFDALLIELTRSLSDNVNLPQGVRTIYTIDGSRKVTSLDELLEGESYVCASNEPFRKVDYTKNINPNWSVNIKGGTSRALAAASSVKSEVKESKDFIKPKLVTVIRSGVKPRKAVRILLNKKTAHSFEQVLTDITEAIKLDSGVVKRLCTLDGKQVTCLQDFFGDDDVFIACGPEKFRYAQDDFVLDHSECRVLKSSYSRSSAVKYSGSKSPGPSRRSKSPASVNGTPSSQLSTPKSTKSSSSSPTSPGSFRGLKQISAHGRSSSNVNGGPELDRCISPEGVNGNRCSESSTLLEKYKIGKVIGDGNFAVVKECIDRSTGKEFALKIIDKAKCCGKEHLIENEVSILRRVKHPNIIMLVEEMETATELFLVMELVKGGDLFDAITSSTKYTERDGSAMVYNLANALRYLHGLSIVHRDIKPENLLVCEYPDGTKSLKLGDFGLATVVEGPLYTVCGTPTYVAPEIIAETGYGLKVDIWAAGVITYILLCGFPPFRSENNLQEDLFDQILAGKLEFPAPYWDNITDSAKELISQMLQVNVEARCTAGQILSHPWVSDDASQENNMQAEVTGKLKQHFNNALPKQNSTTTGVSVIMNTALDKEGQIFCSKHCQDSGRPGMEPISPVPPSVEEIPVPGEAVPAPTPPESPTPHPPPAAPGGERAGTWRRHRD", "UniProt P09769, sequence (whole entry, looked up)": "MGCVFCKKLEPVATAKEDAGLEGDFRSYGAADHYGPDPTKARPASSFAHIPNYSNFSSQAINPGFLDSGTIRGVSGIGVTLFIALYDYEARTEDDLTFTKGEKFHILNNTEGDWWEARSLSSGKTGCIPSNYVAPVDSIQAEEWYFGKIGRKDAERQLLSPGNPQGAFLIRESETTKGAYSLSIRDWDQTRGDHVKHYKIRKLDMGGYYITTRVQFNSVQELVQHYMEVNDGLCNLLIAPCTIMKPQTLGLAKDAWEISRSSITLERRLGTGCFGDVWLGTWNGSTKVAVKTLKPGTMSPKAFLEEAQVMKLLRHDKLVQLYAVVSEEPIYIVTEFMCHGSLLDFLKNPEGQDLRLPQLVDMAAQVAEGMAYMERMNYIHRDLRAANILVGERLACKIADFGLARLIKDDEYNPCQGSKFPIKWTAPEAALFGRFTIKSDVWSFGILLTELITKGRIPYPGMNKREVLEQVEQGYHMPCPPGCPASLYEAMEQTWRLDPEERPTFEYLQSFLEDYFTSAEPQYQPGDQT", "UniProt Q9UPZ9, sequence (whole entry, looked up)": "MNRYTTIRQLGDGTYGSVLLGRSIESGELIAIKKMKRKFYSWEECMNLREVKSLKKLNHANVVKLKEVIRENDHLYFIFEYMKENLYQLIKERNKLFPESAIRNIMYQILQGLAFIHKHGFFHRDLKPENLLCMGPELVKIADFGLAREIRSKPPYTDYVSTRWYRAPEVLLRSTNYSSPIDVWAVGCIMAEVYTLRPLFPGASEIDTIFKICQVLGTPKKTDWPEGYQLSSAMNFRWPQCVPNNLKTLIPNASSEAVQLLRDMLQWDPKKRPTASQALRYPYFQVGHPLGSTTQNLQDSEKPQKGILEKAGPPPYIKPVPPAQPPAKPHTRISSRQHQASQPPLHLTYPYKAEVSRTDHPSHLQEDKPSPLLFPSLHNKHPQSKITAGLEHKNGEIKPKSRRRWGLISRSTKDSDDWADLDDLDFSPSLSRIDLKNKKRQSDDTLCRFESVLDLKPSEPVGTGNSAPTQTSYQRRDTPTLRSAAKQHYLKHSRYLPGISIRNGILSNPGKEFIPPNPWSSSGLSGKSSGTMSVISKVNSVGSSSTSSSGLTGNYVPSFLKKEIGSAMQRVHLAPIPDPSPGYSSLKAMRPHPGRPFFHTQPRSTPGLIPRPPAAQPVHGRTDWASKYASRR", "UniProt P36507, sequence (whole entry, looked up)": "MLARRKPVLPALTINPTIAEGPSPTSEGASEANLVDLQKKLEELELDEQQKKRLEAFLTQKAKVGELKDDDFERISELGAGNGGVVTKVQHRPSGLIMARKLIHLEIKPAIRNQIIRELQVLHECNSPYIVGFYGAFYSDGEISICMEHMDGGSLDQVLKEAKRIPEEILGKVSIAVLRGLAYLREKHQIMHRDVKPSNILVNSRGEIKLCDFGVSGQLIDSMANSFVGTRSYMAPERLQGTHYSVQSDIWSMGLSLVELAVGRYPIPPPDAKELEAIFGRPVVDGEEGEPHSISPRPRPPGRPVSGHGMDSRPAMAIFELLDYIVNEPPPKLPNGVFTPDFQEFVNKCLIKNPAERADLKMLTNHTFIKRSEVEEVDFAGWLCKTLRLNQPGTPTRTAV", "UniProt Q9Y4K4, sequence (whole entry, looked up)": "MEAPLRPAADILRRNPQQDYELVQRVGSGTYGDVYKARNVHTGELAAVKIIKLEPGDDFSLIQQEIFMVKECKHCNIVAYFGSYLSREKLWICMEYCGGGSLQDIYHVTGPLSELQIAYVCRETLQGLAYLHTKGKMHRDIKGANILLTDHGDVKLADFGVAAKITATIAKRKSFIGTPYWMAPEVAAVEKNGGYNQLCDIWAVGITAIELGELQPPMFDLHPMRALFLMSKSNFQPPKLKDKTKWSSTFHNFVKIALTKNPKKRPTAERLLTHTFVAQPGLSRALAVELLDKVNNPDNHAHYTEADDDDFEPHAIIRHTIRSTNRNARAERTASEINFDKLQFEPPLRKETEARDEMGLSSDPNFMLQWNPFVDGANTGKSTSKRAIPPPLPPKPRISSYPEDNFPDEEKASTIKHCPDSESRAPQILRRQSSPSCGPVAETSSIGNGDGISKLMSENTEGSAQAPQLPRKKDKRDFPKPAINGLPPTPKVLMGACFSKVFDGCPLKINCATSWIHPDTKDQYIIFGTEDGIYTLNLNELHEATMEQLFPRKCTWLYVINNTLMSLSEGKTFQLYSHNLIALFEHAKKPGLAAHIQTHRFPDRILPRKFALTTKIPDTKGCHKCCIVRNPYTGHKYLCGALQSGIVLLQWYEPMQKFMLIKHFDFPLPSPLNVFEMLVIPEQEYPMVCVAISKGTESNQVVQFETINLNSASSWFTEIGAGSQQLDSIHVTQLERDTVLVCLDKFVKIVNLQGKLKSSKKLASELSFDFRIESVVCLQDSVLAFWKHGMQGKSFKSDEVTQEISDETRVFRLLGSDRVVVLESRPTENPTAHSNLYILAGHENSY"}
{"data": "Study 1", "organism": "Sarcocystis neurona", "read-out": "parasite growth", "tested at": "10 µM", "time": "96 h", "notes": "first screen", "relative to": "untreated"}
{"SMILES": "O=C(O)c1cc(-c2ccc(F)cc2F)ccc1O", "log2 fold change": 0.09}
{"SMILES": "CCCN1C[C@H](CSC)C[C@@H]2c3cccc4[nH]cc(c34)C[C@H]21", "log2 fold change": 0.0568}
{"SMILES": "C#C[C@]1(O)CC[C@H]2[C@@H]3CCc4cc(OC)ccc4[C@H]3CC[C@@]21C", "log2 fold change": 0.0531}
{"SMILES": "NC(=O)c1cccnc1", "log2 fold change": -0.45}
{"SMILES": "CCC(C)(C)C(=O)O[C@H]1C[C@@H](C)C=C2C=C[C@H](C)[C@H](CC[C@@H]3C[C@@H](O)CC(=O)O3)[C@H]21", "log2 fold change": 0.14}
{"SMILES": "CCCCCCCCCCC[C@@H](C[C@@H]1OC(=O)[C@H]1CCCCCC)OC(=O)[C@H](CC(C)C)NC=O", "log2 fold change": -0.49}
{"SMILES": "COc1cc(/C=C/c2ccc(O)cc2)cc(OC)c1", "log2 fold change": 0.0328}
{"SMILES": "CC(=O)CCCCn1c(=O)c2c(ncn2C)n(C)c1=O", "log2 fold change": 0.11}
{"SMILES": "CN(C)CC[C@@H](c1ccc(Cl)cc1)c1ccccn1", "log2 fold change": 0.14}
{"SMILES": "CC[C@]1(O)C[C@H]2CN(CCc3c([nH]c4ccccc34)[C@@](C(=O)OC)(c3cc4c(cc3OC)N(C=O)[C@H]3[C@@](O)(C(=O)OC)[C@H](OC(C)=O)[C@]5(CC)C=CCN6CC[C@]43[C@@H]65)C2)C1", "log2 fold change": -0.46}
{"data": "Study 2", "target": "Ribosomal protein S6 kinase alpha-5 (RPS6KA5, Homo sapiens, UniProt O75582)", "read-out": "enzyme activity", "mode": "inhibitor", "tested at": "0.5 µM", "relative to": "control", "UniProt O75582, sequence (whole entry, looked up)": "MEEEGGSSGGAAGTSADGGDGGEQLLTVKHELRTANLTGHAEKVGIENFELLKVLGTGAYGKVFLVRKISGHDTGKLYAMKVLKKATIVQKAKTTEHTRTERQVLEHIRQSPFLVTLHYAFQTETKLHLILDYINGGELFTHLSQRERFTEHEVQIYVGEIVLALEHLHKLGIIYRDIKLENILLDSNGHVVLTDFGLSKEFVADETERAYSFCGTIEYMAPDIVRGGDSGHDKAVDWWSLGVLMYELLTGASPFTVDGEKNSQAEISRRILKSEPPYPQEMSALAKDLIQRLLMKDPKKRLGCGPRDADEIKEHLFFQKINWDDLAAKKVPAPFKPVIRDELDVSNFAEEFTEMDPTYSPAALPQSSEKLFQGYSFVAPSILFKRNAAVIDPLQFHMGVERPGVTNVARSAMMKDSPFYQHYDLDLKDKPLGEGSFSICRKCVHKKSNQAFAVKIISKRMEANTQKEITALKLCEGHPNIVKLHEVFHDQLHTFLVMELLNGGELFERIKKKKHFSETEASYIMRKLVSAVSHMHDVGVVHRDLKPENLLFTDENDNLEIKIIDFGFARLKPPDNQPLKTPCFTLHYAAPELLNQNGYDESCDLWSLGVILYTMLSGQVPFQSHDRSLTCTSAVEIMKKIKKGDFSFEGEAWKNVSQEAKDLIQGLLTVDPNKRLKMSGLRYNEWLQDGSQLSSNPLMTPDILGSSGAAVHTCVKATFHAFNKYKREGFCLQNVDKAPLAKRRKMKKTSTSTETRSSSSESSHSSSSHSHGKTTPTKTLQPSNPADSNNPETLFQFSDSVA"}
{"Structure (SMILES)": "Cn1sc(=O)n(Cc2ccccc2)c1=O", "remaining activity": "108%"}
{"Structure (SMILES)": "COc1cc2ncnc(Nc3ccc(F)c(Cl)c3)c2cc1OCCCN1CCOCC1", "remaining activity": "100%"}
{"Structure (SMILES)": "Cc1nc(-c2ccccc2)c(-c2ccncc2)o1", "remaining activity": "107%"}
{"Structure (SMILES)": "Nc1ncnc2n[nH]c(Nc3ccc(F)cc3)c12", "remaining activity": "96.7%"}
{"Structure (SMILES)": "COc1ccc(C(=O)Nc2sc3c(c2C(N)=O)CCCC3)cc1OC", "remaining activity": "106%"}
{"Structure (SMILES)": "CO[C@H]1C[C@@H]2CC[C@@H](C)[C@@](O)(O2)C(=O)C(=O)N2CCCC[C@H]2C(=O)O[C@H]([C@H](C)C[C@@H]2CC[C@@H](O)[C@H](OC)C2)CC(=O)[C@H](C)/C=C(\\C)[C@@H](O)[C@@H](OC)C(=O)[C@H](C)C[C@H](C)/C=C/C=C/C=C/1C", "remaining activity": "106%"}
{"Structure (SMILES)": "NCCNc1ncc(C(N)=O)c(Nc2cccc(C(F)(F)F)c2)n1", "remaining activity": "103%"}
{"Structure (SMILES)": "CNC(=O)c1cc(Oc2ccc(NC(=O)Nc3ccc(Cl)c(C(F)(F)F)c3)cc2)ccn1", "remaining activity": "102%"}
{"Structure (SMILES)": "OCC(O)CCON=C1C(c2c(O)[nH]c3ccccc23)=Nc2ccccc21 (centres unmarked)", "remaining activity": "37.5%"}
{"Structure (SMILES)": "O=C(O)c1ccc2c3c1cccc3c(=O)n1c3ccccc3nc21", "remaining activity": "104%"}
{"Structure (SMILES)": "CN(C)c1ccc(C=C2C(=O)Nc3ccccc32)cc1", "remaining activity": "98.7%"}
{"Structure (SMILES)": "O=C1NC(=O)C(c2cn(CCCO)c3ncccc23)=C1c1cnccn1", "remaining activity": "73.9%"}
{"Structure (SMILES)": "O=C1NC(=O)C(c2cn(CCCn3ccnc3)c3ccccc23)=C1Nc1ccccc1", "remaining activity": "36.9%"}
{"Structure (SMILES)": "Cc1ccc(Nc2nccc(N(C)c3ccc4c(C)n(C)nc4c3)n2)cc1S(N)(=O)=O", "remaining activity": "101%"}
{"Structure (SMILES)": "Cn1c2ccccc2c2c3c(c4c5ccccc5n(CCC#N)c4c21)CNC3=O", "remaining activity": "23.7%"}
{"data": "Study 3", "Structure (SMILES)": "COc1cc(/C=C(\\C#N)C(=O)c2ccc(O)c(O)c2)cc(I)c1O", "mode": "inhibitor", "tested at": "5 µM"}
{"target": "Calcium/calmodulin-dependent protein kinase type II subunit gamma (CAMK2G, Homo sapiens, UniProt Q13555)", "assay": "cell-based kinome profiling", "test system": "human cells", "scale": "relative to: vehicle control", "log2 fold change": 0.269}
{"target": "Serine/threonine-protein kinase B-raf (BRAF, Homo sapiens, UniProt P15056, E586K)", "assay": "cell-based kinome profiling", "test system": "human cells", "scale": "relative to: vehicle control", "log2 fold change": -0.177}
{"target": "Tyrosine-protein kinase Fgr, with CDC37 (FGR, Homo sapiens, UniProt P09769)", "assay": "cell-based kinome screen", "test system": "human cells", "scale": "relative to: vehicle", "log2 fold change": 0.73}
{"target": "Serine/threonine-protein kinase Nek8 (NEK8, Homo sapiens, UniProt Q86SG6)", "assay": "kinase–CDC37 interaction", "conditions": "kinome plate 1@G12", "scale": "relative to: vehicle", "log2 fold change": -0.253}
{"target": "Serine/threonine-protein kinase DCLK2 (DCLK2, Homo sapiens, UniProt Q8N568)", "test system": "human cells", "scale": "relative to: vehicle", "log2 fold change": 0.155}
{"target": "Insulin-like growth factor 1 receptor (IGF1R, Homo sapiens, UniProt P08069)", "assay": "cell-based kinome screen", "test system": "human cells", "scale": "relative to: vehicle", "log2 fold change": 0.121}
{"target": "cAMP-dependent protein kinase catalytic subunit beta (PRKACB, Homo sapiens, UniProt P22694)", "assay": "cell-based kinome screen", "test system": "human cells", "scale": "relative to: untreated control", "log2 fold change": 0.651}
{"target": "cGMP-dependent protein kinase 2 (PRKG2, Homo sapiens, UniProt Q13237)", "assay": "kinase activity", "conditions": "cell-based kinome screen", "scale": "relative to: vehicle", "log2 fold change": 0.019}
{"target": "kinase–CDC37 interaction", "assay": "kinase–CDC37 binding", "test system": "human cells", "conditions": "oncogenic TFG-NTRK1 fusion", "scale": "relative to: vehicle", "log2 fold change": 0.245}
{"data": "Study 4", "SMILES": "CC1=C(C#N)C(c2ccc3c(c2)c(NC(=O)c2ccccc2C)nn3C)C(C#N)=C(C)N1", "technique": "competition with immobilised ligand", "tested at": "1 µM"}
{"target": "Mitogen-activated protein kinase kinase kinase kinase 5 (MAP4K5, Homo sapiens, UniProt Q9Y4K4)", "read-out": "cell-free assay", "remaining binding [%]": 100}
{"target": "Uncharacterized serine/threonine-protein kinase SBK3 (SBK3, Homo sapiens, UniProt P0C264)", "read-out": "cell-free assay", "remaining binding [%]": 100}
{"target": "Homeodomain-interacting protein kinase 2 (HIPK2, Homo sapiens, UniProt Q9H2X6)", "read-out": "cell-free assay", "remaining binding [%]": 73}
{"target": "Dual specificity mitogen-activated protein kinase kinase 7 (MAP2K7, Homo sapiens, UniProt O14733)", "read-out": "cell-free assay", "remaining binding [%]": 65}
{"target": "Mast/stem cell growth factor receptor Kit (KIT, Homo sapiens, UniProt P10721, A829P)", "read-out": "cell-free assay", "remaining binding [%]": 64}
{"target": "Fibroblast growth factor receptor 4 (FGFR4, Homo sapiens, UniProt P22455)", "read-out": "cell-free assay", "remaining binding [%]": 100}
{"target": "Mast/stem cell growth factor receptor Kit (KIT, Homo sapiens, UniProt P10721, V559D/V654A)", "read-out": "cell-free assay", "remaining binding [%]": 99}
{"target": "Dual specificity mitogen-activated protein kinase kinase 2 (MAP2K2, Homo sapiens, UniProt P36507)", "read-out": "cell-free assay", "remaining binding [%]": 82}
{"target": "Serine/threonine-protein kinase ICK (CILK1, Homo sapiens, UniProt Q9UPZ9)", "read-out": "binding", "remaining binding [%]": 97}
{"target": "Tyrosine-protein kinase ABL1, phosphorylated (ABL1, Homo sapiens, UniProt P00519, M351T)", "read-out": "cell-free assay", "remaining binding [%]": 94}
